Measured values from different studies.
Each line is one published result; not all experiments were run side by side. “And” joins repeats or separate records; there may be more than shown.
RPS6KA1: Ribosomal protein S6 kinase alpha-1 (RPS6KA1, Homo sapiens, UniProt Q15418)
Sequence of UniProt Q15418 (whole entry, looked up): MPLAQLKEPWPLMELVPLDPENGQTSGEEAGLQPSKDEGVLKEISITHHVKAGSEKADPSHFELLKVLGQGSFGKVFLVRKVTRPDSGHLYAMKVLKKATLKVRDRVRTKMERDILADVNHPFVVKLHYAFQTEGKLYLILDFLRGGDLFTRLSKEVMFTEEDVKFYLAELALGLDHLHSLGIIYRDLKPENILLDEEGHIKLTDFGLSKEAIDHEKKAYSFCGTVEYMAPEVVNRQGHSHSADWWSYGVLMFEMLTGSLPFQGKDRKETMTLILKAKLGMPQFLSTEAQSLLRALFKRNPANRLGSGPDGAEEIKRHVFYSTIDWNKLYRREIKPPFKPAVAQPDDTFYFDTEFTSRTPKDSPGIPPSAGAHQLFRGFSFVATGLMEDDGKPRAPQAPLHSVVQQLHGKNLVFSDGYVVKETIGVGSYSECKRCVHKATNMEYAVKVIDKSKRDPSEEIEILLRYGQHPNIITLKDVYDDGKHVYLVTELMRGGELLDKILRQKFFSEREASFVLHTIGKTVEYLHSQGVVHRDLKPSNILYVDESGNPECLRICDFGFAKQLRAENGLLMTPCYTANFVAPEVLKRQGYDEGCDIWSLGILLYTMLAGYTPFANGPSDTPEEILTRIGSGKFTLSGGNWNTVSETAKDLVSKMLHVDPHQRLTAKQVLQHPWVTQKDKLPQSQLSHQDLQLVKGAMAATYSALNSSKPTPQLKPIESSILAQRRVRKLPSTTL

COc1c(OCCCN2CCOCC2)ccc2c1N=C(NC(=O)c1cnc(N)nc1)N1CCN=C21
remaining activity (RPS6KA1; kinase activity, inhibitor; 1 µM; baseline: untreated control): 70%

Nc1ncc(-c2cc(-c3cnn(CC(F)(F)F)c3)ncc2F)nc1C(=O)NC1CNCC(F)C1 (centres unmarked)
remaining activity (RPS6KA1; enzyme activity; 1 µM; baseline: DMSO control): 62.1%

CCn1cc(C(=O)O)c(=O)c2c(N)c(F)c(NC3CCCCC3)cc21
inhibition (RPS6KA1; kinase activity; 0.1 µM, added: ATP at Km): 3.9%

NC(=O)C[C@H]1CCc2sc3ncnc(O[C@H]4CC[C@H](N5CCOCC5)CC4)c3c21
inhibition (RPS6KA1; enzyme activity, inhibitor; 10 µM): 23%

Cc1cccc(-c2ccc3nc(NC(=O)C4CCCO4)nn3c2)c1 (centres unmarked)
remaining activity (RPS6KA1; enzyme activity, Dundee kinase panel; 10 µM): 62%

Fc1cncc(-c2ccc3[nH]c4ncnc(N[C@H]5CC[C@H](N6CCOCC6)CC5)c4c3c2)c1
inhibition (RPS6KA1; enzyme activity, inhibitor, radiometric; 1 µM): 83%

Cc1ccc(C)c(-c2ccc3nc(NC(=O)C4CCCCC4)nn3c2)c1
remaining activity (RPS6KA1; enzyme activity, Dundee kinase panel; 10 µM): 68%

COc1ccc(O)cc1-c1c[nH]c2ncc(-c3cncc(C(=O)N(C)C)c3)cc12
inhibition (RPS6KA1; binding, competition with immobilised ligand; 0.2 µM): 8.15%

CS(=O)(=O)Nc1cccc(-c2csc3cnc(Nc4ccc(N5CCN(CCCCCOc6cccc7c6C(=O)N(C6CCC(=O)NC6=O)C7=O)CC5)cc4)nc23)c1 (centres unmarked)
inhibition (Ribosomal protein S6 kinase alpha-1, kinase domain 2 (RPS6KA1, Homo sapiens, UniProt Q15418); probe labelling, inhibitor, KiNativ chemoproteomics; MOLT-4; 1 µM): -16.2%

CN1CCN(Cc2ccc(-c3ccc(CO[C@H]4CCC[C@@H]4NC(=O)c4cc(-c5cnn(C)c5)cnc4N)cc3)cc2)CC1
inhibition (RPS6KA1; enzyme activity, inhibitor; 0.1 µM): 4%

Cc1nc2c(F)cc(-c3nc(Nc4ccc(CNC(=O)CCCCCCC(=O)NO)cc4)ncc3F)cc2n1C(C)C
inhibition (RPS6KA1; enzyme activity, inhibitor; 1 µM): 66%

Nc1nc(Nc2ccccc2)sc1C(=O)c1ccccc1
remaining activity (RPS6KA1; enzyme activity, inhibitor; 10 µM): 24%

Cc1cccc(O[C@H]2CCC[C@@H](C(C)CNCc3ccncc3)C2)c1 (relative stereo)
inhibition (RPS6KA1; enzyme activity, inhibitor; 10 µM): -3%

C=CC(=O)Nc1cc(-c2nn(C3CCN(CCNC(=O)[C@H](C)CCC45CC6CC(CC(C6)C4)C5)CC3)c3ncnc(N)c23)ccc1Oc1ccccc1
inhibition (Ribosomal protein S6 kinase alpha-1, kinase domain 1 (RPS6KA1, Homo sapiens, UniProt Q15418); inhibitor, KiNativ profiling; biochemical; 2 µM): 24.3%

C=CC(=O)Nc1cccc(-c2cnc3[nH]cc(C(=O)NC(C)(C)C)c3n2)c1
inhibition (RPS6KA1; enzyme activity, inhibitor; 0.1 µM): 9%

COCC12C(=O)NC3C4(C(OC)CC1O)C1CC5(O)C(OC)C(O)C(OC(C)=O)(C1C5OC(=O)c1ccccc1)C3(O)C(OC)C24 (centres unmarked)
remaining activity (RPS6KA1; kinase activity, inhibitor, ProQinase kinase profiling; 25 µM; baseline: control): 73% and 89%

c1ccc2c(Nc3cc(C4CCC4)[nH]n3)nc(Nc3ccc4nc[nH]c4c3)nc2c1
remaining activity (RPS6KA1; enzyme activity, inhibitor; 0.25 µM): 5%

A few entries again:
Cc1ccc(C)c(-c2ccc3nc(NC(=O)C4CCCCC4)nn3c2)c1
remaining activity (RPS6KA1; enzyme activity, Dundee kinase panel; 10 µM): 68%

CS(=O)(=O)Nc1cccc(-c2csc3cnc(Nc4ccc(N5CCN(CCCCCOc6cccc7c6C(=O)N(C6CCC(=O)NC6=O)C7=O)CC5)cc4)nc23)c1 (centres unmarked)
inhibition (Ribosomal protein S6 kinase alpha-1, kinase domain 2 (RPS6KA1, Homo sapiens, UniProt Q15418); probe labelling, inhibitor, KiNativ chemoproteomics; MOLT-4; 1 µM): -16.2%
